# Experimental data gathered from unrelated publications.
# Each line is one published result; not all experiments were run side by side. Numbers after ± are the reported error.
SMILES,test,test system,setting,measurement,value
CN(C(=O)n1cnc(-c2ccc[n+]([O-])c2)c1)C1CCCCC1,,"Wistar rat, midbrain","oral, 10 mg/kg/day, 4 h, repeated 5 days",concentration,107 ± 38.6 ng/g
O=C(Nc1ccccc1)C1CCN(C(=O)Oc2cccnc2)CC1,,healthy women,"oral, 20 mg, 7 days",adverse event Fatigue,42.9%
C=CC(=O)Nc1cc(Nc2nccc(Nc3cc(Cl)c(F)cc3C(C)(C)O)n2)c(OC)cc1N1CC[C@@H](N(C)C)C1,,human,"oral, dose not given, phase I clinical",patients with adverse event Hypokalaemia,12.7%
CO[C@H]1C[C@@H]2CC[C@@H](C)[C@@](O)(O2)C(=O)C(=O)N2CCCC[C@H]2C(=O)O[C@H]([C@H](C)C[C@@H]2CC[C@@H](OC(=O)NCCOCCOCCOCCOCCOCCOCCOCCOCCC(=O)N3CCc4cc(Cn5nc(-c6ccc7oc(N)nc7c6)c6c(N)ncnc65)ccc4C3)[C@H](OC)C2)C[C@@H](O)[C@H](C)/C=C(\C)[C@@H](O)[C@@H](OC)C(=O)[C@H](C)C[C@H](C)/C=C/C=C/C=C/1C,phase 1 dose escalation,advanced solid tumour patients,"intravenous, 6 mg weekly, grade ≥3",deaths due to TRAEs,0%
N[C@@H]1c2ccccc2OC12CCN(c1cnc3c(N4CCCc5ncccc54)n[nH]c3n1)CC2,,advanced metastatic solid tumour patients,"oral, 60 mg once daily, cycle 1, 21 days",dose-limiting toxicity,0%
COc1ncccc1-c1cnn2ccc(N3CCN(C(=O)OC(C)C)CC3)nc12,,"rat, CCI cold allodynia model, plasma","oral, 30 mg/kg, 240 min",drug concentration,3.5 µM
CCc1ccc(CC/C=C/c2ccc3c(c2)C(=O)CC3)cc1,,"Sprague-Dawley rat, male","oral, 30 mg/kg/day, 14 days",Calcium,2.4 mM
CC(C)C[C@H](NC(=O)[C@H](CCCCN)NC(=O)OCC1c2ccccc2-c2ccccc21)C(=O)N[C@H](C(=O)N[C@@H](Cc1ccccc1)C(=O)N[C@@H](Cc1ccccc1)C(=O)N[C@@H](CCCCN)C(=O)NCC(=O)N[C@@H](Cc1ccccc1)C(=O)N[C@@H](C)C(=O)N[C@@H](Cc1c[nH]c2ccccc12)C(=O)N[C@@H](CC(N)=O)C(=O)N[C@H](C(=O)N[C@H]1CSSC[C@@H](C(=O)N[C@@H](Cc2c[nH]cn2)C(=O)N[C@@H](CCCNC(=N)N)C(=O)N[C@@H](CCCNC(=N)N)C(=O)N[C@@H](C)C(=O)N[C@@H](CC(N)=O)C(N)=O)NC(=O)[C@H](C(C)C)NC(=O)[C@H](CCCNC(=N)N)NC(=O)[C@H](C(C)C)NC(=O)CNC(=O)[C@H](CC(N)=O)NC(=O)[C@H](CCCNC(=N)N)NC(=O)[C@H](Cc2ccc(O)cc2)NC(=O)[C@H](C(C)C)NC1=O)C(C)C)C(C)C,,"ICR mouse, serum","ip, 5 mg/kg, 3 d dosing, blood day 5",blood urea nitrogen,10.4 ± 0.74 mmol/L
CC(C)(C)c1cc(-n2nc3ccccc3n2)c(O)c(C(C)(C)C)c1,exposure assessment,"human, age 3-6 years",spray sunscreen,mean daily dermal uptake,5.43 ng/kg body weight/day
CCCCCOc1ccc(-c2ccc(-c3ccc(C(=O)N[C@H]4C[C@@H](O)[C@@H](OCC[N+](C)(C)C)NC(=O)[C@@H]5[C@@H](O)[C@@H](C)CN5C(=O)[C@H]([C@@H](C)O)NC(=O)[C@H]([C@H](O)[C@@H](O)c5ccc(O)cc5)NC(=O)[C@@H]5C[C@@H](O)CN5C(=O)[C@H]([C@@H](C)O)NC4=O)cc3)cc2)cc1,,"adult ICU patients, mITT, serum","dose not given, EOT",potassium,4.2 mmol/L
CC[C@H](C)[C@H](NC(=O)[C@H](Cc1ccccc1)NC(=O)[C@H](CCC(=O)O)NC(=O)[C@H](CCCNC(=N)N)NC(=O)[C@H](C)NC(=O)[C@H](C)NC(=O)[C@H](CCC(N)=O)NC(=O)[C@H](CCC(=O)O)NC(=O)[C@H](CCC(=O)O)NC(=O)[C@H](CC(C)C)NC(=O)[C@H](Cc1ccc(O)cc1)NC(=O)[C@H](CO)NC(=O)[C@H](CO)NC(=O)[C@@H](NC(=O)[C@H](CC(=O)O)NC(=O)[C@H](CO)NC(=O)[C@@H](NC(=O)[C@H](Cc1ccccc1)NC(=O)[C@@H](NC(=O)CNC(=O)[C@H](CCC(=O)O)NC(=O)[C@H](C)NC(=O)CCc1cnc[nH]1)[C@@H](C)O)[C@@H](C)O)C(C)C)C(=O)N[C@@H](C)C(=O)N[C@@H](Cc1c[nH]c2ccccc12)C(=O)N[C@@H](CC(C)C)C(=O)N[C@H](C(=O)N[C@@H](CCCNC(=N)N)C(=O)NCC(=O)N[C@@H](CCCNC(=N)N)C(=O)N[C@@H](CCCCNC(=O)COCCOCCNC(=O)COCCOCCNC(=O)CC[C@H](NC(=O)CCCCCCCCCCCCCCCCC(=O)O)C(=O)O)C(=O)NCC(=O)NCC(=O)N[C@@H](CO)C(=O)N[C@@H](CCSC)C(=O)N[C@H](C(=O)N[C@@H](CCCCNc1c(NCCCCCN(O)C(=O)CCC(=O)NCCCCCN(O)C(=O)CCC(=O)NCCCCCN(O)C(C)=O)c(=O)c1=O)C(=O)O)C(C)C)C(C)C [zirconium-89 labelled],ex vivo gamma counting,"Sprague-Dawley rat, male, knee","intravenous, 1 nmol, 72 h",tissue uptake,0.222 %ID/g
CCCCC(=O)c1ccccc1,,,pH 7.4,logD (chromatographic),6.4
C[C@H]1COCCN1c1nc(NCc2cccnc2C(F)(F)F)c2cccnc2n1,,"male CD-1 mouse, femur bone marrow","oral, 1000 mg/kg twice, 48 h, group mean",PCE share,47.3%
COc1cc2c(Oc3ccc4[nH]c(C)cc4c3F)ccnc2cc1OCC1(N)CC1,,paediatric refractory sarcoma patients,8 mg,mouth ulcer incidence,0%
O=C(O)CCCOc1ccc(F)cc1-c1cc(-c2ccccc2C(F)(F)F)n(-c2ccccc2)n1,,"female Crl:CD(SD) rats, kidneys","intravenous, 25 µg/kg, 1 d",relative organ weight,0.79 ± 0.03 g%
C=CC(=O)N1CCC(CNc2ncnc(N)c2-c2ccc(Oc3ccccc3)cc2)CC1,,mouse,GLP pivotal toxicology,NOAEL,1000 mg/kg
N#C[C@@]1(n2ccc(N)nc2=O)O[C@H](CO)[C@@H](O)[C@H]1O,,"mouse CD-1, lung","oral, 30 mg/kg, 7 h",lung concentration,1080 ng/g
[Cl][212Pb][Cl],item: 212Pb,"athymic mouse, C4-2 prostate xenograft, skull","intravenous, 2 h, below quantification limit",tissue uptake,7.3 ± 0.96 %ID/g
COc1ccc(-c2c(-c3ccc(C#N)c(F)c3)nc(N3CCC(N)CC3)n(C)c2=O)cc1F,item: Vomiting,human patients,"oral, dose not given, grade 3 to 4, dose escalation, NG",treatment-related adverse event incidence,0%
C=C(CN(C(=O)c1c(C(F)F)nn(C)c1F)C1CC1)c1ccc(Cl)cc1Cl,static acute toxicity test,zebrafish (Brachydanio rerio),"1.20 mg a.i./L, 72 h",mortality,70%
CN1CC[C@@H](c2c(O)cc(O)c3c(=O)cc(-c4ccc(C(F)(F)F)cc4Cl)oc23)[C@@H]1CO,item: Anemia,relapsed or refractory haematological malignancies,"oral, dose not given, grade 3 to 4, all arms",patients with adverse event,17.5%
O=c1cc(-c2ccc(O)c(O)c2)oc2cc(O)cc(O)c12,,"male Sprague-Dawley rats, obese, urine","oral, 100 mg/kg of neohesperidin, 48 h",cumulative urinary excretion,460 ± 23.4 ng
C[C@]1(CO)Cc2ncn(-c3ccc(C#N)c(Cl)c3)c2C(=O)O1,,human,40 mg single dose,subjects with severe TEAEs,0%
O=C(c1cc(Cc2n[nH]c(=O)c3ccccc23)ccc1F)N1CCN(C(=O)C2CC2)CC1,HPLC-MS/MS,"human patients, plasma","oral, 75 mg, MTD dose level, cycle 1 day 0",AUC(0-12 h),15500 ng·h/mL
O=c1ccc2cc3ccoc3cc2o1,,rat plasma,"200 ng/mL, 2 weeks, -70 °C, post-preparative stability",accuracy,98.1%
CC(=O)NCC(=O)NCC(=O)N[C@H](C(=O)N[C@@H](Cc1ccc(O)cc1)C(=O)N[C@@H](CO)C(=O)N[C@H]1CSSC[C@@H](C(=O)N[C@@H](CCCNC(=N)N)C(=O)N2CCC[C@H]2C(=O)N[C@@H](CCC(N)=O)C(=O)N[C@@H](CCCNC(=N)N)C(=O)NCC(=O)NCCC(=O)N[C@@H](CCCCNC(=O)CN(CC(=O)NCCCC[C@H](NC(=O)CCNC(=O)CNC(=O)[C@H](CCCNC(=N)N)NC(=O)[C@H](CCC(N)=O)NC(=O)[C@@H]2CCCN2C(=O)[C@H](CCCNC(=N)N)NC(=O)[C@@H]2CSSC[C@H](NC(=O)[C@H](CO)NC(=O)[C@H](Cc3ccc(O)cc3)NC(=O)[C@@H](NC(=O)CNC(=O)CNC(C)=O)[C@@H](C)O)C(=O)N[C@@H](Cc3c[nH]cn3)C(=O)N[C@@H](Cc3ccccc3)C(=O)NCC(=O)N[C@@H](C)C(=O)N[C@@H](CC(C)C)C(=O)N[C@@H]([C@@H](C)O)C(=O)N[C@@H](Cc3c[nH]c4ccccc34)C(=O)N[C@@H](C(C)C)C(=O)N2)C(N)=O)C(=O)CCN)C(N)=O)NC(=O)[C@H](C(C)C)NC(=O)[C@H](Cc2c[nH]c3ccccc23)NC(=O)[C@H]([C@@H](C)O)NC(=O)[C@H](CC(C)C)NC(=O)[C@H](C)NC(=O)CNC(=O)[C@H](Cc2ccccc2)NC(=O)[C@H](Cc2c[nH]cn2)NC1=O)[C@@H](C)O,,BALB/c mouse,"subcutaneous, 0.08 mg/kg, 0.5 h",serum concentration,5 ng/mL
O=C(c1ccc(F)c(F)c1Nc1ccc(I)cc1F)N1CC(O)([C@@H]2CCCCN2)C1,,patients aged 6 to sample A years,"oral, dose not given",treatment-related adverse events,90%

# Repeated from above:
SMILES,test,test system,setting,measurement,value
O=C(c1cc(Cc2n[nH]c(=O)c3ccccc23)ccc1F)N1CCN(C(=O)C2CC2)CC1,HPLC-MS/MS,"human patients, plasma","oral, 75 mg, MTD dose level, cycle 1 day 0",AUC(0-12 h),15500 ng·h/mL
CO[C@H]1C[C@@H]2CC[C@@H](C)[C@@](O)(O2)C(=O)C(=O)N2CCCC[C@H]2C(=O)O[C@H]([C@H](C)C[C@@H]2CC[C@@H](OC(=O)NCCOCCOCCOCCOCCOCCOCCOCCOCCC(=O)N3CCc4cc(Cn5nc(-c6ccc7oc(N)nc7c6)c6c(N)ncnc65)ccc4C3)[C@H](OC)C2)C[C@@H](O)[C@H](C)/C=C(\C)[C@@H](O)[C@@H](OC)C(=O)[C@H](C)C[C@H](C)/C=C/C=C/C=C/1C,phase 1 dose escalation,advanced solid tumour patients,"intravenous, 6 mg weekly, grade ≥3",deaths due to TRAEs,0%
N#C[C@@]1(n2ccc(N)nc2=O)O[C@H](CO)[C@@H](O)[C@H]1O,,"mouse CD-1, lung","oral, 30 mg/kg, 7 h",lung concentration,1080 ng/g
COc1ncccc1-c1cnn2ccc(N3CCN(C(=O)OC(C)C)CC3)nc12,,"rat, CCI cold allodynia model, plasma","oral, 30 mg/kg, 240 min",drug concentration,3.5 µM
